Measurements pooled from the literature.
Each line is one published result; not all experiments were run side by side.

| Structure (SMILES) | target or system | test | test system | setting | measurement | value |
| --- | --- | --- | --- | --- | --- | --- |
| Cn1cncc1-c1c(F)cncc1NC(=O)c1c(N)nn2cc(F)cnc12 |  |  | human patients | oral, dose not given, all doses | patients grade ≥3 Anemia | 36% |
| O=C1Nc2cc3[nH]nc(-c4ccncc4)c3cc2CN1Cc1ccccc1 |  | CTCAE v4.03 | human, relapsed or refractory advanced solid tumours | intravenous, 7.2 mg/kg, pooled schedules | patients with vomiting | 60% |
| C[C@@H]1OC(=O)NN=C1c1ccc(-c2ccc(F)cc2)c(C(F)(F)F)c1 |  | phase I trial, refers to: Fatigue all grades | human patients | dose not given, all dose groups | patients with adverse event | 60% |
| C[C@]1(O)C[C@@](N)(c2ccc(-c3nc4n(c3-c3ccccc3)COc3ccncc3-4)cc2)C1 |  |  | human, advanced or metastatic solid tumours | 16 mg once daily, phase I dose escalation | patients with decreased appetite | 0% |
| C=CC(=O)Nc1cc(Nc2nccc(Nc3cc(Cl)c(F)cc3C(C)(C)O)n2)c(OC)cc1N1CC[C@@H](N(C)C)C1 |  |  | human patients | oral, 200 mg, treatment-emergent adverse events | patients with rash | 18.8% |
| COc1ncnn2ccc(-c3cnc4nc(C)n(Cc5nnc([C@@H](C)F)o5)c4c3)c12 |  |  | human | oral, dose not given, grade 5 | patients with fatigue | 0% |
| CCCCC/C=C/C(=O)CCc1ccc(O)c(OC)c1 | human coronavirus OC43 | virus-induced cell killing | MRC-5 | screen | maximum inhibition | 5.42% |
| CN(C)C(=O)c1cc2cnc(Nc3ccc(N4CCNCC4)cn3)nc2n1C1CCCC1 |  | refers to: other hematologic AESIs | human, HR+/HER2− advanced breast cancer | oral, dose not given, grade 4, CTCAE v4.03 | patients with adverse event | 0.3% |
| COc1ccc(-c2c(-c3ccc(C#N)c(F)c3)nc(N3CCC(N)CC3)n(C)c2=O)cc1F |  | refers to: metastases to skin | human patients | oral, 60 mg, dose expansion | patients with serious TEAE | 0% |
| N[C@@H]1c2ccccc2OC12CCN(c1cnc3c(N4CCCc5ncccc54)n[nH]c3n1)CC2 |  | refers to: Thrombocytopenia | human advanced or metastatic solid tumours | oral, 60 mg once daily, phase Ia pooled cohort | patients with treatment-related adverse event | 20% |
| C=C(C)[C@H]1Cc2c(ccc3c2O[C@@H]2COc4cc(OC)c(OC)cc4[C@@H]2C3=O)O1 | human coronavirus OC43 | virus-induced cell killing | MRC-5 | screen | maximum inhibition | 9.66% |
| Cc1cn([C@H]2O[C@@H](CO[P@@](=O)(N[C@@H](C)C(=O)OC(C)C)Oc3ccccc3)[C@H](O)[C@H]2F)c(=O)[nH]c1=O |  | refers to: grade 1/2 | human | 50 mg | patients with creatine kinase elevation | 0% |

Some of these lines once more:
| Structure (SMILES) | target or system | test | test system | setting | measurement | value |
| --- | --- | --- | --- | --- | --- | --- |
| N[C@@H]1c2ccccc2OC12CCN(c1cnc3c(N4CCCc5ncccc54)n[nH]c3n1)CC2 |  | refers to: Thrombocytopenia | human advanced or metastatic solid tumours | oral, 60 mg once daily, phase Ia pooled cohort | patients with treatment-related adverse event | 20% |
| C=C(C)[C@H]1Cc2c(ccc3c2O[C@@H]2COc4cc(OC)c(OC)cc4[C@@H]2C3=O)O1 | human coronavirus OC43 | virus-induced cell killing | MRC-5 | screen | maximum inhibition | 9.66% |
